# Published values pooled from the literature.
# Values joined by “and” are separate records of one study, mostly repeats; a detail may differ. ± gives the spread as reported.
Structure (SMILES),test,test system,setting,how to read,endpoint,value
COc1ccccc1[C@H](Cn1c(=O)n(C(C)(C)C(=O)O)c(=O)c2c(C)c(-c3ncco3)sc21)OC1CCOCC1,,human,"20 mg, post-treatment",,serum total cholesterol,208 ± 36.9 mg/dL
N#Cc1ccc2c(c1)[C@H]1CCCN(C(=O)c3ccc4[nH]cnc4c3)[C@H]1C2,item: HDL,human,"80 mg once daily, day 28, adjusted mean",relative to: placebo,change from baseline,-5.16 mg/dL
CO[C@H]1CC[C@H](N2C(=O)CNc3ncc(-c4ccc(C(C)(C)O)nc4)nc32)CC1,flow cytometry,"stimulated T cells, human, blood","30 mg single dose, 1.5 h, median",relative to: baseline,p4EBP1 change from baseline,-37.1%
CC(C)NCC(O)c1ccc(O)c(O)c1 (stereo not shown),,"ventricular cardiomyocytes, C57BL/6 mouse","dose not given, 0.544 s",,sarcomere length,1.5 µm
Cc1n[nH]c2ccc(-c3cc(OC[C@@H](N)Cc4ccccc4)cnc3-c3ccoc3)cc12,"kinase binding, competitor, MIB/MS competition, item: YAK1",Candida albicans cell lysate,100 nM,relative to: DMSO,log2 fold change,-0.229
C[C@@H](O)CCOC(=O)C[C@@H](C)O,,human,"oral drink, dose not given, 180 min post dose, median, all participants",,plasma glucagon,19 pM
FC(F)(F)Oc1cccc(-c2cnc3ccc(-c4ccncc4)nn23)c1,bioluminescence,"mouse, MDA-MB-231-Luc xenograft","30 mg/kg, day 21",,tumour growth,248% and 523% and 158% and 301% and 380%
Cc1cc(F)cc2c(CCC(=O)N[C@@H]3C(=O)NC[C@H]3O)c(-c3ccc(F)cc3)[nH]c12,proteinuria,APOL1 G2 mice,"30 mg/kg twice daily, with: IFNγ",,UACR AUC(day 6-14),16500 µg·days/mg
Cc1cccc(N(O)N=Nc2ccc(S(=O)(=O)Nc3onc(C)c3C)cc2)c1,carrageenan-induced paw edema,Wistar rat,"oral, 100 mg/kg, 2 h after carrageenan, with: carrageenan 1% subplantar",higher = more edema,paw edema volume,5.78 ± 0.66 a.u.
COCCOC(=O)C1=C(C)NC(C)=C(C(=O)OC(C)C)C1c1cccc([N+](=O)[O-])c1 (stereo not shown),whole-cell current clamp,"DRG neurons, naive rat",dose not given,,resting membrane potential,-66.1 mV and -79 mV and -64.7 mV and -71.7 mV and -63.5 mV and -68.7 mV
CCCN(O)N=Nc1ccc(S(=O)(=O)Nc2nccs2)cc1,carrageenan-induced paw edema,Wistar rat,"oral, 100 mg/kg, 3 h after carrageenan, with: carrageenan 1% subplantar",higher = more edema,paw edema volume,5.39 ± 0.66 a.u.
CCOC(=O)c1ccc(N)cc1,,CD-1 mouse female,"subcutaneous, 6.5 mg/mouse, 0 min",higher = stronger analgesia,tail flick latency,4.13 a.u. and 3.54 a.u. and 3.37 a.u. and 2.77 a.u. and 3.57 a.u.
COc1ccc(C(=O)Nc2ccc(-n3cc(CNc4nc(OC)nc(OC)n4)nn3)cc2)cc1,"cell viability, MTT","normal colonocytes, rat",72 h,,IC50,13.2 ± 3.52 nM
COc1ccc(-c2cncc(N[C@@H](C)c3cccc(NC(=O)c4cncc(C)c4)c3)n2)cc1OC,item: rno-miR-100-5p,"rat SU5416/hypoxia model, lung","dose not given, unit not given",relative to: SU5416/hypoxia vehicle,delta delta Ct,0.738
O=C1c2ccncc2C(=O)c2c1[nH]c1ccccc21,,female monocrotaline PAH rat,dose not given,relative to: vehicle,RV free wall thickness,decreased
Cc1cc(NS(=O)(=O)c2ccc(N=NN(C)O)cc2)no1,carrageenan-induced paw edema,Wistar rat,"oral, 100 mg/kg, 0 h (baseline), with: carrageenan 1% subplantar",higher = more edema,paw edema volume,3.49 ± 0.56 a.u.
Cn1cc(Nc2nccc(-c3ccc4c(c3)CN(C3COC3)CC[C@H]4NC(=O)c3cn(C(C)(C)C)nn3)n2)cn1,item: Cardiac Hypertrophy Signaling (Enhanced),"splenic B cells, mouse","in vivo, 30 mg/kg, IgD-activated B cells","relative to: vehicle, positive = activation",pathway activation z-score,4.73
COc1cc2cc(-c3ccc(CC(=O)Nc4cc(C(C)(C)C(F)(F)F)no4)cn3)cnc2cc1OC,RECIST v1.1,human RET fusion-positive NSCLC,"75 mg, phase I",,best overall response PD,5%
N#Cc1ccc2c(-c3ccncc3)c(-c3ccc(F)cc3)nn2c1,"kinase binding, competitor, MIB/MS competition, item: YCK2",Candida albicans cell lysate,1 µM,relative to: DMSO,log2 fold change,-3.21
COc1nc(NCc2cn(-c3ccc(C(=O)Nc4ccc([N+](=O)[O-])cc4)cc3)nn2)nc(OC)n1,"cell viability, MTT","normal colonocytes, rat",72 h,,IC50,65 ± 10.5 nM
OC(CCN1CCCCC1)(c1ccccc1)C1CC2C=CC1C2 (stereo not shown),resting-state EEG,healthy elderly humans,"oral, 2 mg, eyes closed, LS mean",,"EEG power, gamma, Fz-Cz",0.5 µV²
CC(C)C[C@H](NC(=O)[C@@H](Cc1c[nH]c2ccccc12)NC(=O)[C@H](Cc1ccc(O)cc1)NC(=O)[C@H](CO)NC(=O)[C@H](Cc1c[nH]c2ccccc12)NC(=O)[C@H](Cc1c[nH]cn1)NC(=O)[C@@H]1CCC(=O)N1)C(=O)N[C@@H](CCCNC(=N)N)C(=O)N1CCC[C@H]1C(=O)NCC(N)=O,Tanner staging,"Chinese girls, central precocious puberty","intramuscular, 22.5 mg day 1, month 6, month 12",relative to: baseline,stable pubic hair stage,87.1%
O=C(O)CNC(=O)Cc1ccccc1,,"ventricular cardiomyocytes, C57BL/6 mouse","dose not given, 0.012 s",,sarcomere length,1.72 µm
CCCN(O)N=Nc1ccc(S(=O)(=O)Nc2onc(C)c2C)cc1,carrageenan-induced paw edema,Wistar rat,"oral, 100 mg/kg, 3 h after carrageenan, with: carrageenan 1% subplantar",higher = more edema,paw edema volume,5.15 ± 0.41 a.u.
COc1cc(-c2ccccc2)ncc1C(=O)Nc1ccc2c(=O)[nH]c(-c3ccc(C(C)(C)O)cc3)nc2c1,"RNA-seq GSEA, item: HALLMARK_NOTCH_SIGNALING","organoids, small intestinal, Apc Q1405X, mouse","dose not given, knockout organoids","relative to: DMSO, direction not given",normalized enrichment score,-1.49
Cc1c(NC(=O)c2cccnc2)c(=O)n(-c2ccccc2)n1C,histology,"Dmd C3333Y mice, quadriceps",dose not given,,centrally nucleated fibres,48% and 59% and 55% and 63% and 61%
C[C@H](Oc1ccc(Br)cc1-c1ccon1)C(=O)O,relative refractory period,"human, tibialis anterior muscle","200 mg, SAD",,difference from placebo,0.443 ms
Cc1cc(C)c(CNC(=O)c2cc(Cl)c3c(c2C)O[C@@](C)([C@H]2CC[C@H](N(C)C)CC2)O3)c(=O)[nH]1,IWG criteria,relapsed/refractory PTCL patients,dose not given,,stable disease as best response,7%
C[C@H]1C[C@H]2CSC(N)=N[C@@]2(c2nc(NC(=O)c3ccc(OC(F)F)cn3)cs2)CO1,item: Aβx-40,"healthy adults, plasma","40 mg single dose, 24 h post-dose",relative to: placebo,percent change from baseline,-46.6%
CCc1cc(-c2noc(-c3cc(OC)nc(C4CCCC4)c3)n2)cc(C)c1OC[C@@H](O)CO,,"Wistar rats, blood","oral gavage, 0.1 10 mg/kg",,maximal lymphocyte count reduction,2570 ± 90 lymphocytes/µL
NCC(=O)Nc1cncc(-c2nn3c(=O)cc(N4CCNCC4)nc3s2)c1,"ADP-induced platelet aggregation, light transmission aggregometry",stable CAD patients on aspirin,"subcutaneous, 0.05 mg/kg, 24 h post-dose, with: ADP 20 µM",relative to: placebo,inhibition of platelet aggregation,-7.83%
Cc1cccc(N(O)N=Nc2ccc(S(=O)(=O)Nc3cc(C)on3)cc2)c1,carrageenan-induced paw edema,Wistar rat,"oral, 100 mg/kg, 2 h after carrageenan, with: carrageenan 1% subplantar",higher = more edema,paw edema volume,5.32 ± 0.48 a.u.
CC(C)[C@@H](CS(=O)(=O)C(C)C)N1C(=O)[C@@](C)(CC(=O)O)C[C@H](c2cccc(Cl)c2)[C@H]1c1ccc(Cl)cc1,,"mouse, subcutaneous MDM2-amplified GBM PDX","100 mg/kg daily, 4 weeks",,time to recurrence after last dose,> 100 days
C=CCn1c(=O)c2cnc(Nc3ccc(N4CCN(C)CC4)cc3)nc2n1-c1ccc2c(n1)[C@@](O)(CC)CC2,,"MDA-MB-468 xenograft, CB17 SCID mice","oral, 80 mg/kg, day 56, once daily x 56",,tumour growth inhibition,87.1%
COc1cc(Nc2ncc3c(n2)-c2ccc(Cl)cc2C(c2c(F)cccc2OC)=NC3)ccc1C(=O)O,,"mouse, NB-SD neuroblastoma xenograft","oral, 5.2 mg/kg, day 7",relative to: vehicle,relative tumour volume T/C,1.88
Cc1cn(-c2ccc3n(c2=O)CCN([C@@H](C)[C@@H]2CC[C@H](c4cc(F)c(Cl)cc4C(F)(F)F)O2)C3=O)cn1,,"human, CSF","200 mg once daily, 14 days, multiple dose, single LP",relative to: placebo,CSF Aβ38 increase,46.5%
CC#CC(=O)N[C@H]1CCCN(c2c(F)cc(C(N)=O)c3[nH]c(C)c(C)c23)C1,item: IgM,human,"0.3 mg once daily, day 21",relative to: baseline,serum immunoglobulin,5.6 % change
Cc1noc(C)c1-c1cc(C(O)(c2ccccn2)c2ccccn2)c2nc(C3CC3)[nH]c2c1,item: HEXIM1 expression,"human, peripheral blood","3 mg, day 8, 1599 study",,maximum induction,12.5%
c1ccc(-c2n[nH]cc2-c2ccnc3ccccc23)nc1,"kinase binding, competitor, MIB/MS competition, item: YAK1",Candida albicans cell lysate,10 µM,relative to: DMSO,log2 fold change,1.08
Cc1noc(NS(=O)(=O)c2ccc(N=NN(O)c3ccccc3)cc2)c1C,carrageenan-induced paw edema,Wistar rat,"oral, 100 mg/kg, 0 h (baseline), with: carrageenan 1% subplantar",higher = more edema,paw edema volume,3.59 ± 0.41 a.u.

# Repeated from above:
Structure (SMILES),test,test system,setting,how to read,endpoint,value
CCOC(=O)c1ccc(N)cc1,,CD-1 mouse female,"subcutaneous, 6.5 mg/mouse, 0 min",higher = stronger analgesia,tail flick latency,4.13 a.u. and 3.54 a.u. and 3.37 a.u. and 2.77 a.u. and 3.57 a.u.
CCc1cc(-c2noc(-c3cc(OC)nc(C4CCCC4)c3)n2)cc(C)c1OC[C@@H](O)CO,,"Wistar rats, blood","oral gavage, 0.1 10 mg/kg",,maximal lymphocyte count reduction,2570 ± 90 lymphocytes/µL
Cc1noc(NS(=O)(=O)c2ccc(N=NN(O)c3ccccc3)cc2)c1C,carrageenan-induced paw edema,Wistar rat,"oral, 100 mg/kg, 0 h (baseline), with: carrageenan 1% subplantar",higher = more edema,paw edema volume,3.59 ± 0.41 a.u.
